Published values gathered from unrelated publications.
Every numbered part comes from another study and shows a few of its results, in no order.

Sample 1
Target: Ras GTPase-activating protein-binding protein 1, C-terminal RGG region (G3BP1, Homo sapiens, UniProt Q13283)
UniProt Q13283, sequence (whole entry, looked up): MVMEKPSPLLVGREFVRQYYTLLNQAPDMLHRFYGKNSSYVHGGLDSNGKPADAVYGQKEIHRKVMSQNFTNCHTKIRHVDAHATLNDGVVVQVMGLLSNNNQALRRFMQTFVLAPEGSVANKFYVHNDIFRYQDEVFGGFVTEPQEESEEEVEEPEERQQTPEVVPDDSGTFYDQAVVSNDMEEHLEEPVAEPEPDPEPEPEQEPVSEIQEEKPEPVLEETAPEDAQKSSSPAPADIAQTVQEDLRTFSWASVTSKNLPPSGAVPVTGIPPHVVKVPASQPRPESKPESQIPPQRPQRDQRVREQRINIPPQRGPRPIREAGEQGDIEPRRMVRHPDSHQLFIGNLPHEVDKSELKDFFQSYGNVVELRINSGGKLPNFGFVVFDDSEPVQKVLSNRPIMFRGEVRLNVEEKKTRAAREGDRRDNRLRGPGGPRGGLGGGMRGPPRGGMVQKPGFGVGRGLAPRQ
Method: RNA Bind-n-Seq
Molecule type: RNA
Sample: in vitro
Tested at: 1 µM
Notes: whole 134-nt RNA, ends assumed
Together with: 150 mM KCl
Baseline: input library
Direction: higher = stronger binding
Endpoint: log2 enrichment
Shared flanks, not repeated: GGGAGUUCUACAGUCCGACGAUC … UGGAAUUCUCGGGUGUCAAGG
UCCUGUGCUACACAUCGUAUGUACCGAAUCGGGGUUUUUGGGGUUUUUUUGGGGUGGGGAAAGUAUUAUGUUACGCCGUUCGGAUCUGCA: 1.26
GUCCUGUGCUACACAUCGUAUGUACCGAAUCGGGAAAAAAAGGGAAAGGGAAAAAGGGAAAGUAUUAUGUUACGCCGUUCGGAUCUGCAC: -0.56
ACCAUGCAGGUGGGCAUCUUUGGGAAGUGGGGCAAGGGGGGGAUAGGGAGGGGGGUAACACAUUGGGAACAGGUGGUCCCAGGUCGUUUC: 2.21
GUGCUGGCUGGCCACGGUCACCUGUAUUCCCGCAUCCCAGGCCUGCUCAGCCCCCAUCCCCUGCUGCAGCUGAGCUACACGGCCACCGAC: 0.691
UCCUGUGCUACACAUCGUAUGUACCGAAUCGGUUUUUUGGGUUUUUUGGGGUUUUUUGGGAAAGUAUUAUGUUACGCCGUUCGGAUCUGC: -0.579
UCCUGUGCUACACAUCGUAUGUACCGAAUCGGGGAAAGGGGUUUUUGGGGAAAAAGGGGAAAGUAUUAUGUUACGCCGUUCGGAUCUGCA: 1.44
GUCCUGUGCUACACAUCGUAUGUACCGAAUCGGGGAAAAAGGGGAGGGGUUUUUGGGGAAAGUAUUAUGUUACGCCGUUCGGAUCUGCAC: 1.56
UUCCAUUGUGAACGUGCCUGGUGAGUCUACUCUUCGCCGAGAUUUCCUGAGACUGCAGCAGGAGAACAAGGAACGUUCCGAGGCUCUUCG: -1.68
AAGUCCUGUGCUACACAUCGUAUGUACCGAAUCGGGGUUUGGGGAAAGGGGAGGGGAAAGUAUUAUGUUACGCCGUUCGGAUCUGCACUU: 3.4

Sample 2
Target: Histone acetyltransferase KAT6A, winged helix 2, GST fusion (KAT6A, Homo sapiens, UniProt Q92794, residues 85-181)
Method: protein binding microarray
Molecule type: double-stranded DNA, one strand shown
Sample: in vitro
Tested at: not given
Notes: 8-mer, flanks averaged, mean of 2 arrays, mostly near background
Baseline: not given
Direction: higher = stronger binding
Endpoint: E-score
Target sequence (chain): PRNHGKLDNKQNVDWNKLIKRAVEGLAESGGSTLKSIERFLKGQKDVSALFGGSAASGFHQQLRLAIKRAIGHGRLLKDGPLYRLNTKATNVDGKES
CCGACCCA: 0.205
CCTGACCC: -0.0474
ACTCCGAG: 0.0577
ATCGTGAC: -0.0614
ATAGCCAC: -0.0744
GCATGTAA: -0.191
GGTGTATA: -0.0783
ACAAAATC: 0.026
AGACACAT: -0.235
CGGCAATA: -0.00648
CCTTTGAC: -0.219
ACCGTTTC: -0.0145
AGGCAACG: 0.145
GCTACGAC: -0.0106
AGGTGAGA: -0.0447
GTGAACTA: -0.0539
GCTGTGAC: 0.0191
GACTTCTC: 0.0365
CGGTGACG: 0.054
ACGCTTCC: 0.0775
ACACTTCA: -0.0416
AGACGCAA: 0.0813
GATATGAC: -0.0281
AAGTTGGG: -0.174
CTCTGCTC: 0.11

Sample 3
Target: RNA binding protein fox-1 homolog 2, RRM domain, GST-SBP tag (RBFOX2, Homo sapiens, UniProt O43251-10, residues 100-194)
Method: RNA Bind-n-Seq
Molecule type: RNA
Sample: in vitro
Tested at: 365 nM
Notes: natural RNA segment, single round, ends assumed
Baseline: no-protein control
Direction: higher = stronger binding
Endpoint: RBNS enrichment (R)
Shared flanks, not repeated: GGGAGUUCUACAGUCCGACGAUC … UGGAAUUCUCGGGUGCCAA
Construct (chain): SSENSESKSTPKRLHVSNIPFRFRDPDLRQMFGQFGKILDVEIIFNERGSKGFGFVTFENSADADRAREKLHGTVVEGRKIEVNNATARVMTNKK
AAAAGUCUACUUUUCCAUCUAACUAGAUUGAGACUGGAUUCUUUAGCCCAGUCUUCCUUAGUCUCUGGACCUAGAAGGGACCAUUGGAGAAGCAGGCUCUGCUUCUCUGU: 0.203
AGGGCCAGCGUCACCAGACCAGCUGCGGGACAAACCACUCAGACUGCUUGUAGGACAAAUACUUCUGACAUUUUCGUUUAAGCAAAUACAGGUGCAUUUAAAACACGACU: 0.561
AAUGGUUCCGACUUGUCCCUCUCUCAGCCCUCCAUGGCCUGGCACGAGGGGAUGGGGAUGCUUCCGCCUUUCCGGGGCUGCUGGCCUGGCCCUUGAGUGGGGCAGCCUCC: 0.283
GAGGCAGAGAGAUAAGGGAGGCCCCUCCCCCCUCCCGGAGGCCAGAACCCCGUGGGGUGGGGGAGAGGAUGUUUCUGUGGGCCCCUUCACCCCUCCUCUGUCUGCACCUC: 0.408
UUGUUUUCAAUAUUGUAUUCAGCCUAUUGUAGGAGGGGGAUGUGGCGUUUCAACUCAUAUAAUACAGAAAGAGUUUUGAAUGGGCAGAUUUCAAACUGAAUAUGGGUCCC: 0.545
AGAUGCUAGAGUCGACUGCACUCUCUCCUUAGCUGCAGACCAUGCACAGUGCCUGGGGCGGAAGGAGGAGAGGUGUUGCGGUUUGCCCUGCUGCCUCCCCAGCAGGAACA: 0.539
CACUCCCCUACAAAAGAUGGAGCUUAAUGGAGAAAUUGCAACUUUCAUUAAAAAACAAAUUCAGAUGAAAUAUCAGUAACUGUCUUGGACAGUGCUGAAAUCAGGUGGUU: 0.481
AAAGAUGAGAAUCUGGUGUUUCUGUACUUUAUUAUUUUCAAUAAAACUCAAUGUUUUGAACUUUUAAGUAUCUGUAAUCCUGUAUAAAUGUAAAUUAAGCAUUUUUUCCU: 0.745

Sample 4
Target: RING finger protein unkempt homolog, zinc fingers 1-6, GST-SBP tag (UNK, Homo sapiens, UniProt Q9C0B0, residues 30-357)
UniProt Q9C0B0, sequence (30-357, looked up): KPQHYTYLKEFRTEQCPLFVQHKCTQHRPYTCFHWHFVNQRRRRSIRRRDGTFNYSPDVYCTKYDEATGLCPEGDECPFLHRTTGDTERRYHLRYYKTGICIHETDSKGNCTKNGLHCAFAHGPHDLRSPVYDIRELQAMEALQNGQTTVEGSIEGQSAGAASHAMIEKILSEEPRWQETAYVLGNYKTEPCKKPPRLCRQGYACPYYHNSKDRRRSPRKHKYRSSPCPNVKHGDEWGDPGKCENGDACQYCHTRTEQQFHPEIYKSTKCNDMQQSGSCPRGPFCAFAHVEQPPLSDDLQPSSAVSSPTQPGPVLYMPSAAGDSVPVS
Method: RNA Bind-n-Seq
Molecule type: RNA
Sample: in vitro
Tested at: not given
Notes: RNA with constant flanks, human-mouse chimeric sites, ends assumed
Baseline: input RNA pool
Direction: higher = stronger binding
Endpoint: bound/input enrichment
Shared flanks, not repeated: GGGAGUUCUACAGUCCGACGAUC … CAACAGAGGAUUGAGCAUCA
UAUUUUUGACAGCCACACAAUCUUGGCAUGUAUUAAGGAAAAAAAAAAUCCCUGUUGAAGUAGUUUUUCCACCUAUCAGCACUGAGUAAAUGCCAUAAAUCCAUUGAAAUGGUCUAAAUA: 0.151 ratio
ACCUCCCAGGCCUGGGACACCCCACCCCCGCUUUUUGGAAAGUUUUUGGCGUUUCUUUUCCUUCCCCAUACAAAGUGAUUACAGUUUCCCCCGCAAGUGGGGCUUGAAGGGCUUGACGGA: 0.4 ratio
AAAGAGUGGAUAGAGUGUGCACACGGGAUCGGUGGGACCCGGGCGAAAAAGGAGUGCAAGAUAGAGUUCGAUGACUUCGAAGAGUGCUUGCUUCGGUAGAAAACGAUGAGACGUGCACAU: 0.37 ratio
AGAUUCCCCCUCCUGAGACCUCCUCCGAAGUUGGAGUCUCUUAUAGAUGCCUCAUCCCCUGUUAGCGUUUUAGUUUGGACCACCCAGCCUUGGACAAUUCCCGCCAAUGAAGCUGUUUGC: 3.46 ratio
AGAGAAAUGAGAAAGAAUCUUACACAAGAAGAGAUGCAAAGAAUGUCUACUAGAGUCCUUUUGGCGACUCUUUCCAUCCCUAUUACUCCUGAGCGAACUGAUAUUGCUCGACUUCUGGAU: 0.206 ratio
AAAGAGAAACUAAAGCAACUAAUAGAGAAGAGGAUUGGCAAAGAGAAAUUUCAUAGAAAACUAGGAUUUAUUAGCAAACAUGAGUUAUAUUCCAGAGCGUCUCAGAAACCCCAGCCAAAC: 15 ratio
ACCUCCCCCUCCCGCCUCACCCCACCCCCGCUUUUUGAAAGUGUGUUGGCGUUUCUUUUCCUUCCCCAUACAAAGUGAUUACAGUUUCCCCCGCAAGGGUCUAUCGAUUCACCCUUCGGA: 0.881 ratio
UUGGAAGGACCAGAGCCUAAUCAACUGAAACCAUUAGUUAUACAGGCUAUGCCCACCCUAAUAGAAUUAAUGAAAGACCCCAGUGUAGUUGUUCGAGACACAACAGCGUGGACUGUGGGC: 2.23 ratio

A few entries again (sample 4):
AGAUUCCCCCUCCUGAGACCUCCUCCGAAGUUGGAGUCUCUUAUAGAUGCCUCAUCCCCUGUUAGCGUUUUAGUUUGGACCACCCAGCCUUGGACAAUUCCCGCCAAUGAAGCUGUUUGC: 3.46 ratio
ACCUCCCCCUCCCGCCUCACCCCACCCCCGCUUUUUGAAAGUGUGUUGGCGUUUCUUUUCCUUCCCCAUACAAAGUGAUUACAGUUUCCCCCGCAAGGGUCUAUCGAUUCACCCUUCGGA: 0.881 ratio
AAAGAGUGGAUAGAGUGUGCACACGGGAUCGGUGGGACCCGGGCGAAAAAGGAGUGCAAGAUAGAGUUCGAUGACUUCGAAGAGUGCUUGCUUCGGUAGAAAACGAUGAGACGUGCACAU: 0.37 ratio
AGAGAAAUGAGAAAGAAUCUUACACAAGAAGAGAUGCAAAGAAUGUCUACUAGAGUCCUUUUGGCGACUCUUUCCAUCCCUAUUACUCCUGAGCGAACUGAUAUUGCUCGACUUCUGGAU: 0.206 ratio
UAUUUUUGACAGCCACACAAUCUUGGCAUGUAUUAAGGAAAAAAAAAAUCCCUGUUGAAGUAGUUUUUCCACCUAUCAGCACUGAGUAAAUGCCAUAAAUCCAUUGAAAUGGUCUAAAUA: 0.151 ratio
AAAGAGAAACUAAAGCAACUAAUAGAGAAGAGGAUUGGCAAAGAGAAAUUUCAUAGAAAACUAGGAUUUAUUAGCAAACAUGAGUUAUAUUCCAGAGCGUCUCAGAAACCCCAGCCAAAC: 15 ratio
UUGGAAGGACCAGAGCCUAAUCAACUGAAACCAUUAGUUAUACAGGCUAUGCCCACCCUAAUAGAAUUAAUGAAAGACCCCAGUGUAGUUGUUCGAGACACAACAGCGUGGACUGUGGGC: 2.23 ratio
